Published values of several laboratories.
Each numbered part is a random draw from the data of one study; scales do not carry over between parts. ± marks the error that the study gave.
UniProt Q9BZL6, sequence (whole entry, looked up): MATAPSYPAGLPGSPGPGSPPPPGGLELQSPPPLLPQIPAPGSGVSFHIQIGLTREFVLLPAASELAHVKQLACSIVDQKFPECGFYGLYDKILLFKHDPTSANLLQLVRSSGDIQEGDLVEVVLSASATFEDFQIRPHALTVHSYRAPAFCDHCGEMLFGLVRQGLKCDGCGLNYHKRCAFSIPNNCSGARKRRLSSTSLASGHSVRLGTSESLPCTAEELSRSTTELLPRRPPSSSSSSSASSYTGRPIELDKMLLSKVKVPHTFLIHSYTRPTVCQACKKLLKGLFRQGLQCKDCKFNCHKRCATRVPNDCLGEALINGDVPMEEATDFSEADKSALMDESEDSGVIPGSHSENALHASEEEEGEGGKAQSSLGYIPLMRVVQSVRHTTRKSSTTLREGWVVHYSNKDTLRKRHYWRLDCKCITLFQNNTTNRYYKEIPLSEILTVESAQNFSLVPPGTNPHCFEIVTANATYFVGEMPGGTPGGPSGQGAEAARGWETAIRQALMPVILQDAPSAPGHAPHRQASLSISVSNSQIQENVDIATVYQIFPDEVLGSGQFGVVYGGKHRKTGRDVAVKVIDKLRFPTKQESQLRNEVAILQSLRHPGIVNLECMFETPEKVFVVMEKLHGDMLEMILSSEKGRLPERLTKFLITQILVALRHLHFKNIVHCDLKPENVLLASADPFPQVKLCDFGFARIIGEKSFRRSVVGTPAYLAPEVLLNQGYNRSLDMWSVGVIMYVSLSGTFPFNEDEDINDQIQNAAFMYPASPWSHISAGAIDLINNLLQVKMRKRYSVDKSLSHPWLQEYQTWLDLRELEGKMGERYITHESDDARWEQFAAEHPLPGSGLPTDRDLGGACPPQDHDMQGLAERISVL
UniProt Q00534, sequence (whole entry, looked up): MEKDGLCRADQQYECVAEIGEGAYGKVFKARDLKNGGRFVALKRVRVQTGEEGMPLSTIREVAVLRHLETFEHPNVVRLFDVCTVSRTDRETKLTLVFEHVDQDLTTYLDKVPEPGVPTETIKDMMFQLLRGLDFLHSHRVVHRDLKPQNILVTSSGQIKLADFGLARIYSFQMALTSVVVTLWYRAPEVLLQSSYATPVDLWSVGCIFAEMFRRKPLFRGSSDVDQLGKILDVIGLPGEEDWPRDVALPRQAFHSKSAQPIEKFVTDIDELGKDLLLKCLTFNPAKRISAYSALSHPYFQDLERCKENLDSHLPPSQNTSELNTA
UniProt P10398, sequence (whole entry, looked up): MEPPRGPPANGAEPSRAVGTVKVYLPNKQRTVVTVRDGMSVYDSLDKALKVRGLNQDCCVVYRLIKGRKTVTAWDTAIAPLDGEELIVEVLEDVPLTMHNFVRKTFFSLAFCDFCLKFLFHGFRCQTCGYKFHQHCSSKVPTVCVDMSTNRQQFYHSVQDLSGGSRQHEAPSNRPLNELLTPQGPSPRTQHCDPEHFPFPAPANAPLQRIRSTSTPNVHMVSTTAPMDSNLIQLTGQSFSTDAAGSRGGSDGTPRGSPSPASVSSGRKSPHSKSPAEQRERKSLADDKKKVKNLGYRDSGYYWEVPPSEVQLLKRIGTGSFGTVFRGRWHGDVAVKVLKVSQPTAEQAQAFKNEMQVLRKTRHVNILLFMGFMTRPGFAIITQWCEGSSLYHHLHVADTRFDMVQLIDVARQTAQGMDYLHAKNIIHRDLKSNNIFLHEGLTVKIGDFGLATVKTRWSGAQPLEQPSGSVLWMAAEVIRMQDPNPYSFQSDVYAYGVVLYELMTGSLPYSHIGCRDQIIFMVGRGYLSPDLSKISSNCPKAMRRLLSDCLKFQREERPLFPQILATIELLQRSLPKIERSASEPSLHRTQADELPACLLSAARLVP
UniProt P51957, sequence (whole entry, looked up): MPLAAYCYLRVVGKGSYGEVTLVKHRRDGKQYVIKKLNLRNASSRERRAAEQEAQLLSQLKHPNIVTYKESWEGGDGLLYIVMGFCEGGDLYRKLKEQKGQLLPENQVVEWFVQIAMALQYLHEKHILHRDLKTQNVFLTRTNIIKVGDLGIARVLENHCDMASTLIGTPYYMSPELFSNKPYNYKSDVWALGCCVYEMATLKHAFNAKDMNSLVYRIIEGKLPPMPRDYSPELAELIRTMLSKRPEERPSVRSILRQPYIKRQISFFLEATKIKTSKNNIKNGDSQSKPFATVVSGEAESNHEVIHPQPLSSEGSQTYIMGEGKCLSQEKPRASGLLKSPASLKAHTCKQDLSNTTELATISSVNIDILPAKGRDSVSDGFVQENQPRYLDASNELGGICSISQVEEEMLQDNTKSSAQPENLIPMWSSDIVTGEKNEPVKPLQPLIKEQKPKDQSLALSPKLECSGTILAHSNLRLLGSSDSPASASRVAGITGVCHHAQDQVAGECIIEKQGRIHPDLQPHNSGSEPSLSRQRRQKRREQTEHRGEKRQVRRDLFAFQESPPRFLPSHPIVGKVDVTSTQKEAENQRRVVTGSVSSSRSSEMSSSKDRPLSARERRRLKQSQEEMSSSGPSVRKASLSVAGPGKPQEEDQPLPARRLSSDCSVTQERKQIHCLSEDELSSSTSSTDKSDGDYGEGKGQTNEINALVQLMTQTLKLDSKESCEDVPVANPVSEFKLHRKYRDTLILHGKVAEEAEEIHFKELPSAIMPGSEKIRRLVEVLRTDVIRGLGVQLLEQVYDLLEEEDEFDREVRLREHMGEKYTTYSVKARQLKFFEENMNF
UniProt Q13464, sequence (whole entry, looked up): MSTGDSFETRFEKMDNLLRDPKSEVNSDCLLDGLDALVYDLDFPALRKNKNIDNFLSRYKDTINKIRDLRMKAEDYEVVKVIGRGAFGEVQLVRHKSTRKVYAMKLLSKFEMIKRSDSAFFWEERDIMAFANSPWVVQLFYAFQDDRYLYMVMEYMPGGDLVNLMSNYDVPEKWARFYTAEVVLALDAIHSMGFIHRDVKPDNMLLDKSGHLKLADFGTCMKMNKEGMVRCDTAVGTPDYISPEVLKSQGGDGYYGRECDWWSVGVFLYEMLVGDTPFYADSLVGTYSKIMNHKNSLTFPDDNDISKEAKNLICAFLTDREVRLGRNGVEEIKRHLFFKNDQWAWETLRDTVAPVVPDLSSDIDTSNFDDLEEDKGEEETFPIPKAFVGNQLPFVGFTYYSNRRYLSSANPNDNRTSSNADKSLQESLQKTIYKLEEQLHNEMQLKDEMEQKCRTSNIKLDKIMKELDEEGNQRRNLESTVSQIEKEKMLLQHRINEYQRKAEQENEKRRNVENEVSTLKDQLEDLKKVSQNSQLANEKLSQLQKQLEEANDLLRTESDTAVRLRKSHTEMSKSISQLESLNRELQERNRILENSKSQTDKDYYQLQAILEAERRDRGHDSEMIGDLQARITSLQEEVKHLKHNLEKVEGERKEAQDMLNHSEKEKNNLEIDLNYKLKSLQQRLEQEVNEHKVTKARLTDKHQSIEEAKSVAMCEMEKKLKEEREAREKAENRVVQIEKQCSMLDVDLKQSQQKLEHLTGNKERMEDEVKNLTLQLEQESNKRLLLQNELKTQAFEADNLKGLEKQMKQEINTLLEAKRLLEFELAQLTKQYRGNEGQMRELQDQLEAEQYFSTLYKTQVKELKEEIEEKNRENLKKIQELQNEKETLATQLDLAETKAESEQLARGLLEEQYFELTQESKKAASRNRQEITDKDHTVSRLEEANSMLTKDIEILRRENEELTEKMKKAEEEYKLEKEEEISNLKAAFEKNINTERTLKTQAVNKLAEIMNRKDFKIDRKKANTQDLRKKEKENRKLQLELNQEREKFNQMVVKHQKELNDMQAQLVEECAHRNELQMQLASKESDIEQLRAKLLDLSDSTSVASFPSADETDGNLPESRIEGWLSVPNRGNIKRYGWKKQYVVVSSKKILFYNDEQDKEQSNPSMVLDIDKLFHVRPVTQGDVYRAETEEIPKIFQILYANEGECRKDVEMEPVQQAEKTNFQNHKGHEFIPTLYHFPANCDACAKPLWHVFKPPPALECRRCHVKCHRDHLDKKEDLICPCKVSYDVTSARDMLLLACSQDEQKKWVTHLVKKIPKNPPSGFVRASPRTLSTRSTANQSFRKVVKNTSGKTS

Sample 1
Structure (SMILES): Cc1sc(C(=O)NC2COC2)cc1-n1cc(NC(=O)Nc2c(F)cccc2Cl)cn1
Observed: enzyme activity
Concentration: 10 µM
Relative to: untreated control
Quantity: remaining activity
target = NEK4 (Homo sapiens, UniProt P51957); result = 75.3%
target = DAPK2 (Homo sapiens, UniProt Q9UIK4); result = 97.3%
target = PRKD2 (Homo sapiens, UniProt Q9BZL6); result = 95.4%
target = CSNK1G3 (Homo sapiens, UniProt Q9Y6M4); result = 90.5%
target = ROCK1 (Homo sapiens, UniProt Q13464); result = 96.4%
target = ARAF (Homo sapiens, UniProt P10398); result = 83.2%
target = CSNK1G1 (Homo sapiens, UniProt Q9HCP0); result = 97.7%
target = MST1R (Homo sapiens, UniProt Q04912); result = 88%
target = Cyclin-dependent kinase 6, with cyclin D3 (CDK6, Homo sapiens, UniProt Q00534); result = 93.5%

Sample 2
Target: Calcium/calmodulin-dependent protein kinase type II subunit alpha (CAMK2A, Homo sapiens, UniProt Q9UQM7)
UniProt Q9UQM7, sequence (whole entry, looked up): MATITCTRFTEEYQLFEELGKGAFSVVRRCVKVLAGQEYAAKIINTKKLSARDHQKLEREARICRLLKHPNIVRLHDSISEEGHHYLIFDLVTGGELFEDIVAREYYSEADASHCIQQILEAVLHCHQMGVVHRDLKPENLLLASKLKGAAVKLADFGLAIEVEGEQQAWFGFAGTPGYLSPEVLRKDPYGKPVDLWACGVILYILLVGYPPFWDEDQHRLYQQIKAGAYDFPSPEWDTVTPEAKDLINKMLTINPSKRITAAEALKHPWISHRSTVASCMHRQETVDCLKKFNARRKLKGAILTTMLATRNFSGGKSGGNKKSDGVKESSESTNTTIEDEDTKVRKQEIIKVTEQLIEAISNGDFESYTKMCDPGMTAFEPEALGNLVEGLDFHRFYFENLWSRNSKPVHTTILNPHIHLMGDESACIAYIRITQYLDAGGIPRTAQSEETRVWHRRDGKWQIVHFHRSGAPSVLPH
Observed: enzyme activity
Action: inhibitor
Concentration: 10 µM
Quantity: inhibition
SMILES = O=c1c(O)c(-c2ccccc2)oc2ccc(O)cc12; result = 19%
SMILES = COc1ccc2cc3[n+](cc2c1OC)CCc1cc(O)c(O)cc1-3; result = -14%
SMILES = O=C(O)[C@H](O)c1ccccc1; result = -15%
SMILES = C[n+]1ccccc1/C=N/O; result = -7%
SMILES = CCn1cc(C(=O)O)c(=O)c2cnc(N3CCNCC3)nc21; result = 0%
SMILES = CC(C)N(CCCCOCC(=O)O)c1cnc(-c2ccccc2)c(-c2ccccc2)n1; result = -14%
SMILES = Oc1c(Cl)cc(Cl)cc1Sc1cc(Cl)cc(Cl)c1O; result = -9%
SMILES = O=C(OC[C@H]1O[C@@H](OC(=O)c2cc(O)c(O)c(O)c2)[C@H](OC(=O)c2cc(O)c(O)c(O)c2)[C@@H](OC(=O)c2cc(O)c(O)c(O)c2)[C@@H]1O)c1cc(O)c(O)c(O)c1; result = -64%

Sample 3
Target: Muscarinic acetylcholine receptor M4 (CHRM4, Homo sapiens, UniProt P08173)
UniProt P08173, sequence (whole entry, looked up): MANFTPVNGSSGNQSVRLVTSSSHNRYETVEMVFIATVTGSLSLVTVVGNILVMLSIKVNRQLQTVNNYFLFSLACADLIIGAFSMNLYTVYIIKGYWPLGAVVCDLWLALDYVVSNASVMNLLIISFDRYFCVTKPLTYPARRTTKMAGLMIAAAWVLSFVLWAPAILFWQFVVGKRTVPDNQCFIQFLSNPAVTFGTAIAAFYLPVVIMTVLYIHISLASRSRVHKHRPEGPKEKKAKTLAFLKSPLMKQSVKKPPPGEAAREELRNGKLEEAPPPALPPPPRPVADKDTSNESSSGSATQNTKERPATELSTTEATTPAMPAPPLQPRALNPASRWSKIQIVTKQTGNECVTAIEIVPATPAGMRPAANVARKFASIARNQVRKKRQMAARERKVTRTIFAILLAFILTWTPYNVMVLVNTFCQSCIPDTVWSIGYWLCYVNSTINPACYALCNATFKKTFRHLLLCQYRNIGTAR
Observed: binding
Method: radioligand binding
Concentration: 10 µM
Quantity: inhibition
SMILES = O=C(Nc1cccnn1)N1CCC(=Cc2cccc(Oc3ccc(C(F)(F)F)cn3)c2)CC1; result = 7.38%
SMILES = CC(C)(O)c1cncc(-c2nc3ccc(F)cc3n2C2CC2)c1; result = -0.57%
SMILES = CN([C@@H]1CCc2c(CC(=O)O)c3cc(S(C)(=O)=O)ccc3n2C1)S(=O)(=O)c1ccc(F)cc1; result = -1.13%
SMILES = Cc1cc(C)c(-n2ccn3nc(-c4cccnc4)cc23)cc1NC(=O)c1cc(C#N)cc(S(F)(F)(F)(F)F)c1; result = 14.9%
SMILES = CN(C)C(=O)Cn1cc(-c2nc([C@@](C)(c3ccc(-c4cnc(N)nc4)cc3)C3CC3)no2)cn1; result = 10.3%
SMILES = CN1C(=O)[C@@H](N2CCc3cn(Cc4ccccc4)nc3C2=O)COc2ccccc21; result = 8.56%
SMILES = Cc1c[nH]c2nccc(Oc3c(F)cc(Nc4cc(Cl)nc(N)n4)cc3F)c12; result = -12.5%
SMILES = CC1=C(C#N)C(c2ccc3c(c2)c(NC(=O)c2ccccc2C)nn3C)C(C#N)=C(C)N1; result = 6.87%
SMILES = O=C([C@H]1C[C@H](O)CN1c1ccc(Cl)cc1)N1CC2COCC(C1)N2Cc1ccc(Cl)cc1; result = -6.12%
SMILES = CC(=O)c1c(NS(C)(=O)=O)c2cc(-c3ccc(Cl)cc3)c(-c3ccc(Cl)cc3Cl)nc2n(C)c1=O; result = 16.2%
SMILES = O=C(Nc1cnc(Oc2ccc(F)cc2)nc1)N1CCc2ncccc2[C@@H]1c1ccc(F)cc1; result = 22.8%
SMILES = O=C1CCc2cc(Nc3cc(OC4CCOCC4)c([N+](=O)[O-])cc3Cl)ccc2N1; result = 48.7%
SMILES = O=C1c2ccc(Nc3ccc(F)cc3F)cc2CCc2ccc(OC[C@H](O)CO)cc21; result = -3.22%
SMILES = CC(=O)Nc1c(F)cc(C(=O)N[C@H]2CC[C@H](O)CC2)cc1O[C@@H](C)c1ccccc1; result = -0.27%
SMILES = COc1nc2ccc([C@@](O)(c3ccccc3)C3CCN(C(C)=O)CC3)cc2c(Cl)c1Cc1ccc(-n2cccn2)cc1; result = 8.86%
SMILES = CNC(=O)c1ccc(Nc2ncc(C(F)(F)F)c(NCc3nccnc3N(C)S(C)(=O)=O)n2)cc1; result = -19.4%
SMILES = CC(=O)Nc1nc(CN2CCC[C@H](Cc3cc(C)nc(C)c3)C2)cs1; result = 8.78%
SMILES = Nc1c(C(=O)NCc2ccc(C(=O)NCCCC3CCCCC3)cc2)cnn1-c1ccccc1; result = -4.14%
SMILES = CCCOc1ccc([C@H]2[C@H](C(=O)O)[C@@H](c3ccc4c(c3)OCO4)CN2CC(=O)Nc2c(CC)cccc2CC)cc1; result = 12.5%
SMILES = COc1cc(-c2cn(C3CCc4ccccc4N(CC(F)(F)F)C3=O)nn2)ccc1-n1ccc(C)n1 (stereo not drawn); result = 6.94%
SMILES = CC(C)CC(=O)N1CCc2nc(-c3ccc(Br)cc3)nc(N(C)Cc3ccccc3)c2C1; result = 3.58%
SMILES = CN1CCN(C(=O)C(C)(C)c2ccc(C(=O)Nc3cn4cc(-c5ccncc5)ccc4n3)cc2)CC1; result = 25.2%
SMILES = COc1cccc(CNC(=O)c2nc3scc(COCc4ccc(C(=O)O)cc4)c3c(=O)[nH]2)c1; result = -11.2%
SMILES = CS(=O)(=O)NCC[C@H](NC(=O)c1cncc2c1cnn2-c1ccc(F)cc1)c1ccnc(S(C)(=O)=O)c1; result = 10.8%
SMILES = COCc1nc2cnc3cc(-c4c(C)noc4C)c(OC[C@H]4CCNC4)cc3c2n1[C@H](C)c1ccccc1; result = 15.7%

Sample 4
SMILES: COc1cc(C(=O)N2CCC(N3CCN(C)CC3)CC2)ccc1Nc1ncc2c(n1)N(C)c1ccccc1C(=O)N2C
Observed: kinase activity
Quantity: remaining activity
target = SGK1; concentration = 1 µM; result = 75 ± 14%
target = EPH-B2; concentration = 1 µM; result = 96 ± 7%
target = Aurora A; concentration = 1 µM; result = 33 ± 2%
target = PKBb; concentration = 1 µM; result = 93 ± 3%
target = MSK1; concentration = 1 µM; result = 79 ± 8%
target = EPH-A4; concentration = 10 µM; result = 94 ± 5%
target = DAPK1; concentration = 1 µM; result = 85 ± 1%
target = SYK; concentration = 10 µM; result = 63%
target = DYRK1A; concentration = 10 µM; result = 95 ± 1%
target = MAPK7 (Homo sapiens, UniProt Q13164); method = KiNativ profiling; concentration = 1 µM; result = 5%
target = JAK2; concentration = 1 µM; result = 74 ± 6%
target = HER4; concentration = 10 µM; result = 72 ± 4%
